Experimental data pooled from the literature.
“And” joins repeats or separate records; there may be more than shown. Numbers after ± are the reported error.

Compound = CC(C)c1nc(CN(C)C(=O)N[C@H](C(=O)N[C@@H](Cc2ccccc2)C[C@H](O)[C@H](Cc2ccccc2)NC(=O)OCc2cncs2)C(C)C)cs1; system = human, plasma; conditions = oral, 100 mg twice daily, day 14, together with: saquinavir 1000 mg twice daily; AUC(0-tau) = 5510 ng·h/mL
Compound = Cc1cc(Nc2ncc(Cl)c(Nc3ccccc3S(=O)(=O)C(C)C)n2)c(OC(C)C)cc1C1CCNCC1; system = human, plasma; conditions = oral, 750 mg/day, after dose 9; AUC(0-tau) = 24.6 µM·h and 45.1 µM·h and 20.1 µM·h
Compound = C#C[C@]1(O)CC[C@H]2[C@@H]3CCc4cc(O)ccc4[C@H]3CC[C@@]21C; system = HIV-positive women, serum; conditions = oral, 30 µg, 24 h after last dose, ritonavir arm, steady state, together with: ritonavir; AUC(0-tau) = 2.25 ± 0.567 ng·h/mL
Compound = Cc1ccc(NC(=O)c2ccc(CN3CCN(C)CC3)cc2)cc1Nc1nccc(-c2cncc(-c3oncc3C)c2)n1; system = Parkinson's disease patients, plasma; conditions = oral, 50.0 mg once daily, day 1, 7-day dosing, mean; AUC(0-tau) = 19300 ng·h/mL
Compound = C[C@H]1CN(C(=O)CC#N)[C@]12CCN(c1ncnc3[nH]ccc13)C2; system = atopic dermatitis patients, plasma; conditions = topical, 5 g of 3% ointment twice daily, day 1; AUC(0-tau) = 30.4 ± 10.8 ng·h/mL
Compound = Nc1cc(F)ccc1NC(=O)c1ccc(CNC(=O)/C=C/c2cccnc2)cc1; system = Japanese patients, plasma; conditions = oral, 30 mg, cycle 1 day 1; AUC(0-tau) = 3740 ng·h/mL
Compound = C=C(C)[C@@H]1CC[C@]2(NCCN3CCS(=O)(=O)CC3)CC[C@]3(C)[C@H](CC[C@@H]4[C@@]5(C)CC=C(C6=CC[C@@](CF)(C(=O)O)CC6)C(C)(C)[C@@H]5CC[C@]43C)[C@@H]12; assay = LC-MS/MS; system = HIV-1-infected treatment-naive adults, plasma; conditions = oral, 140 mg once daily, day 7, monotherapy; AUC(0-tau) = 29300 ng·h/mL
Compound = C[C@@H](N)c1cc(Cl)ccc1Cn1c(=S)[nH]c(=O)c2[nH]ccc21; system = healthy Japanese volunteers, plasma; conditions = oral, 2.5 mg once daily, day 1, geometric mean; AUC(0-tau) = 0.1 µM·h
Compound = C[C@]12C=CC(=O)C=C1CC[C@@H]1[C@@H]2[C@@H](O)C[C@@]2(C)[C@H]1C[C@H]1O[C@@H](C3CCCCC3)O[C@]12C(=O)CO; system = children with asthma, serum; conditions = inhaled, 160 µg ciclesonide, day 7, HFA-MDI with spacer, tau 24 h; AUC(0-tau) = 0.663 ± 0.042 ng·h/mL
